Measurements of several laboratories.
± gives the spread as reported.

Cc1ccc2c(c1)C(=O)C(=O)N2CC#CCN1CCN(c2ccnc3cc(Cl)ccc23)CC1 — IC50 (Tritrichomonas foetus; growth; D1): 24.5 µM
O=C1NC(=S)S/C1=C\c1cn(Cc2ccc(F)cc2)c2ccc([N+](=O)[O-])cc12 — IC50 (Trypanosoma equiperdum; trypomastigotes, IVM-t1): > 63 µM
CC[C@@H](C(=O)[C@@H](C)[C@@H](O)[C@H](C)CCc1ccc(C)c(O)c1C(=O)O)[C@H]1O[C@](CC)([C@H]2CC[C@](O)(CC)[C@H](C)O2)C[C@@H]1C — IC50 (Eimeria tenella; viability; sporozoites; 24 h): 0.03 µM
CCC(=O)Nc1cc(C(=O)CNc2ccc(C(C)(C)C)cc2)ccc1OC — IC50 (Enterovirus A; cytopathic effect; Vero, EV71; 48 h): > 20.1 µM
Cc1ncc([N+](=O)[O-])n1CCO — IC50 (Tritrichomonas foetus; growth; D1): 0.72 µM
C#CCn1cc(/C=C2\SC(=S)NC2=O)c2cc([N+](=O)[O-])ccc21 — IC50 (Trypanosoma equiperdum; trypomastigotes, IVM-t1): > 78 µM
CC1(C)CC[C@]2(C(=O)O)CC[C@]3(C)C(=CC[C@@H]4[C@@]5(C)CC[C@H](O)C(C)(C)[C@@H]5CC[C@]43C)[C@@H]2C1 — IC50 (Eimeria tenella; viability; sporozoites; 24 h): 21.2 µM
CNc1cc(C(=O)Nc2ccc(C#N)cc2)ccc1OC — IC50 (Enterovirus A; cytopathic effect; Vero, EV71; 48 h): 16.3 µM
O=C1C2=C(Nc3ccccc3SC2c2ccccc2C(=O)O)c2ccccc21 (stereo not drawn) — IC50 (Chlamydia trachomatis; inclusion formation, immunofluorescence imaging; HEp-2, serovar L2; 24 h post-infection, added 8 h post-infection): > 25 µg/mL
O=C1NC(=S)S/C1=C\c1c[nH]c2ccc([N+](=O)[O-])cc12 — IC50 (Trypanosoma equiperdum; trypomastigotes, IVM-t1): 38.2 ± 0.85 µM
CCC(=O)Nc1cccc(C(=O)Nc2ccc(Cl)cc2)c1 — IC50 (Enterovirus A; cytopathic effect; Vero, EV71; 48 h): 14.2 µM
O=C1C2=C(Nc3ccccc3SC2c2cccc(O)c2)c2ccccc21 (stereo not drawn) — IC50 (Chlamydia trachomatis; inclusion formation, immunofluorescence imaging; HEp-2, serovar L2; 24 h post-infection, added 8 h post-infection): ~16 µg/mL
O=C1NC(=S)S/C1=C\c1cn(Cc2ccccc2)c2ccc([N+](=O)[O-])cc12 — IC50 (Trypanosoma equiperdum; trypomastigotes, IVM-t1): > 73 µM
CCOC(=O)c1ccc(OCCC2CCN(c3ccc(C)nn3)CC2)cc1 — IC50 (Enterovirus A; cytopathic effect; Vero, EV71; 48 h): 0.16 µM
O=C1CSC(=S)N1/N=C/c1c[nH]c2ccc([N+](=O)[O-])cc12 — IC50 (Trypanosoma equiperdum; trypomastigotes, IVM-t1): > 61 µM
N#Cc1ccccc1C1Sc2ccc(C(F)(F)F)cc2NC2=C1C(=O)c1ccccc12 (stereo not drawn) — IC50 (Chlamydia trachomatis; inclusion formation, immunofluorescence imaging; HEp-2, serovar L2; 24 h post-infection, added 8 h post-infection): 0.7 µg/mL
C[C@H]1[C@H](C)CC[C@]2(C(=O)O)CC[C@]3(C)C(=CC[C@@H]4[C@@]5(C)CC[C@H](O)C(C)(C)[C@@H]5CC[C@]43C)[C@H]12 — IC50 (Eimeria tenella; viability; sporozoites; 24 h): 47.8 µM
O=C1NC(=S)S/C1=C\c1cn(Cc2cccc(Cl)c2)c2ccc([N+](=O)[O-])cc12 — IC50 (Trypanosoma equiperdum; trypomastigotes, IVM-t1): > 61 µM
CCCCc1ccc(NC(=O)c2ccc(OC)c(NC(=O)CC)c2)cc1 — IC50 (Enterovirus A; cytopathic effect; Vero, EV71; 48 h): 14.2 µM
C#CCn1cc(C=O)c2cc([N+](=O)[O-])ccc21 — IC50 (Trypanosoma equiperdum; trypomastigotes, IVM-t1): > 110 µM
CCCCc1ccc(NC(=O)c2ccc(OC)c(NC)c2)cc1 — IC50 (Enterovirus A; cytopathic effect; Vero, EV71; 48 h): 6.89 µM

For quick reference, copied from above:
CCOC(=O)c1ccc(OCCC2CCN(c3ccc(C)nn3)CC2)cc1 — IC50 (Enterovirus A; cytopathic effect; Vero, EV71; 48 h): 0.16 µM
O=C1CSC(=S)N1/N=C/c1c[nH]c2ccc([N+](=O)[O-])cc12 — IC50 (Trypanosoma equiperdum; trypomastigotes, IVM-t1): > 61 µM
